# Measurements gathered from unrelated publications.
# Numbered parts are unrelated; each lists some results of a single study. Changes are numbered by the printed parent chain.

# Series 1
# Target: CCNF, cyclin fold, Cln2 fusion (human)
# Technique: yeast growth competition, sequencing
# Matrix: yeast
# Setting: strong parent motif
# Baseline: not given
# Direction: higher = stronger binding
# Starting sequence: PKMYT1 docking peptide (human); SFEPRNLLSLFED
Substitution,normalised enrichment score
N6A,1.04
E3H,2.42
E12W,1.56
S9G,0.666
R5K,0.801
R5N,-1.27
F11Q,-0.293
S1H,1.24
L7G,-0.871
F11Y,-0.182
E12R,0.561
R5W,-2.13
L7E,-1.63
P4D,-0.773
R5E,-0.166
E12Q,0.682
E3R,1.37
E3S,-0.418
R5Y,-1.16
N6Q,0.815
E3L,1.38
L7R,-0.603
D13N,1.35
N6W,0.432
F11L,0.811

# Series 2
# Target: ABI1, truncated, D143A, DHFR fusion (Arabidopsis thaliana)
# Technique: DHFR PCA, deep sequencing
# Matrix: yeast
# Setting: methotrexate growth selection, single substitutions
# Added: (+)-ABA 0.032 µM
# Baseline: wild-type fitted maximum
# Direction: higher = stronger binding
# Starting sequence: PYL1, truncated, DHFR fusion (Arabidopsis thaliana); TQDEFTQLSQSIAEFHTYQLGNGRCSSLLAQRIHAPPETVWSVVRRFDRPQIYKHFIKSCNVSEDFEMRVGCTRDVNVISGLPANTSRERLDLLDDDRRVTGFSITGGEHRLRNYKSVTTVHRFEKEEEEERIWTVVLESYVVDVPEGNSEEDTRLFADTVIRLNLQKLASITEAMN
Substitution,relative binding score [%]
R90G,-3.75
K58C,-4.79
P36H,24.7
N61L,18.3
S26L,-1.41
F5R,8.47
L20T,47
D153W,-2.85
V43M,2.98
D3K,1.86
S87M,36.5
R90F,4.28
F124N,-4.94
A84Y,95.1
T120C,3.76
G148S,-0.978
V161D,0.749
F56T,-3.87

# Series 3
# Target: CEBPD, bZIP domain (human)
# Technique: DHFR protein complementation
# Matrix: yeast
# Setting: single substitutions, most at no-binding floor
# Baseline: wild-type JUN-FOS pair
# Direction: higher = stronger binding
# Starting sequence: JUN, bZIP domain (human); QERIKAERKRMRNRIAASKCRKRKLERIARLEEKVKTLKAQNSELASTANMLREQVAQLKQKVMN; partner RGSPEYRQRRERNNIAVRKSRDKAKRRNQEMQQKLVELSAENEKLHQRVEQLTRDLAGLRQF
Substitution,binding fitness [natural log]
E33P,-1.46
L31M,-1.33
N42S,-1.44
A57R,-1.38
K39S,-1.29
S47A,-1.32
T37S,-1.28
Q41T,-1.37
M51V,-1.39
N42H,-1.39
Q41P,-1.46
A29N,-1.4
M51W,-1.42
V56R,-1.49
Q55F,-1.45
L38N,-1.49
E32M,-1.42
Q55K,-1.36

# Series 4
# Target: Histone acetyltransferase KAT6A, both winged helices, GST fusion (KAT6A, Homo sapiens, UniProt Q92794, residues 1-181)
# Technique: protein binding microarray
# Molecule type: double-stranded DNA, one strand shown
# Matrix: in vitro
# Concentration: not given
# Setting: 8-mer, flanks averaged, mean of 2 arrays, mostly near background
# Baseline: not given
# Direction: higher = stronger binding
# Residues (chain): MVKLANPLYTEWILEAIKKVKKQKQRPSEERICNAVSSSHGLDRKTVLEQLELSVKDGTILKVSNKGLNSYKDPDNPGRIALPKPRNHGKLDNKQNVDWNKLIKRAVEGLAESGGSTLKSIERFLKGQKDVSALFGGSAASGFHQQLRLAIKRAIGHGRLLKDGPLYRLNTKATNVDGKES
Oligonucleotide,E-score
ACCCGCCA,0.128
GGCGATTA,0.151
GAGCACGA,-0.07
ACGACATC,-0.0625
AAATGCAA,-0.21
ATCAGGAT,-0.0919
CTCATGAC,0.0179
AATGAAGG,-0.112
CTTCACCC,0.124
ATTGTTCC,0.0934
ATACGTAC,0.0316
ACAAATCC,-0.115
AACCACTA,-0.0745
AACCCTTA,-0.117
AAACATAT,-0.0304
CTACTGTA,-0.135
AACTGACC,-0.0507
GTGAACCA,-0.047
GGGCACCC,0.0724
CGAACCAG,-0.111
AAAGCATA,0.00585
GCCTATAC,-0.107
CGTTATTA,0.127
GCAATTTA,0.0667
ACACCAGG,-0.217
